Experimental data gathered from unrelated publications.
Compare with care: the assays were run in different laboratories. Values joined by “and” are separate records of one study, mostly repeats; a detail may differ. ± gives the spread as reported.
Albumin: Albumin (Mus musculus, UniProt P07724)
Sequence of UniProt P07724 (whole entry, looked up): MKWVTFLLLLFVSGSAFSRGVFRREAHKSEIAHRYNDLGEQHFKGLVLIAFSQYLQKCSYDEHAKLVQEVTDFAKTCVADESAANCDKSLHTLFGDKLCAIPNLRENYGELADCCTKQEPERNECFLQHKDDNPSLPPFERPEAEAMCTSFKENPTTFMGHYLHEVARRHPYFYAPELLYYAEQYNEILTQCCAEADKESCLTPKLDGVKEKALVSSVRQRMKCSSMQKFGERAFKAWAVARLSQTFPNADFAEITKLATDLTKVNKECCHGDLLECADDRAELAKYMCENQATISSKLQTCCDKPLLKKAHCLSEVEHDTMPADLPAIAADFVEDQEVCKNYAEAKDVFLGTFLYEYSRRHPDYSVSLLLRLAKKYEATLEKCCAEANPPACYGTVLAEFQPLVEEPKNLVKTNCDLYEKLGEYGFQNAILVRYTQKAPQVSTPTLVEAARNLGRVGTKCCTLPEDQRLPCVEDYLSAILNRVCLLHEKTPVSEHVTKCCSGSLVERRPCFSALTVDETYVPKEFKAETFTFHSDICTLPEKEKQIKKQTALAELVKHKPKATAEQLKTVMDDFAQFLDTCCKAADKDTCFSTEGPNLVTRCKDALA
TDP1: Tyrosyl-DNA phosphodiesterase 1 (TDP1, Homo sapiens, UniProt Q9NUW8)
Sequence of UniProt P10632 (whole entry, looked up): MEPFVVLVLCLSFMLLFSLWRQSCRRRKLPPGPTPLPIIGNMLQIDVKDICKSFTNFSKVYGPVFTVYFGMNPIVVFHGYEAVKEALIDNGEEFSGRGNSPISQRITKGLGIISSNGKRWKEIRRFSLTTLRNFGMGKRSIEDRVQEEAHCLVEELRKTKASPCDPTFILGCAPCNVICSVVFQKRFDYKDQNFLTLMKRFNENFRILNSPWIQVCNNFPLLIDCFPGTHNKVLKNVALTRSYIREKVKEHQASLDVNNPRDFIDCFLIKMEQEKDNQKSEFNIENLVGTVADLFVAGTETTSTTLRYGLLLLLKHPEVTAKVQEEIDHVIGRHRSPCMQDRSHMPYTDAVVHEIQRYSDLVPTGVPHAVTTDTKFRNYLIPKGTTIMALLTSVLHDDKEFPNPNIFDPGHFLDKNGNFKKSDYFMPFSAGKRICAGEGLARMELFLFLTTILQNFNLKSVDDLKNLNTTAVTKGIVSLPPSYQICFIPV
Sequence of UniProt Q9NUW8 (whole entry, looked up): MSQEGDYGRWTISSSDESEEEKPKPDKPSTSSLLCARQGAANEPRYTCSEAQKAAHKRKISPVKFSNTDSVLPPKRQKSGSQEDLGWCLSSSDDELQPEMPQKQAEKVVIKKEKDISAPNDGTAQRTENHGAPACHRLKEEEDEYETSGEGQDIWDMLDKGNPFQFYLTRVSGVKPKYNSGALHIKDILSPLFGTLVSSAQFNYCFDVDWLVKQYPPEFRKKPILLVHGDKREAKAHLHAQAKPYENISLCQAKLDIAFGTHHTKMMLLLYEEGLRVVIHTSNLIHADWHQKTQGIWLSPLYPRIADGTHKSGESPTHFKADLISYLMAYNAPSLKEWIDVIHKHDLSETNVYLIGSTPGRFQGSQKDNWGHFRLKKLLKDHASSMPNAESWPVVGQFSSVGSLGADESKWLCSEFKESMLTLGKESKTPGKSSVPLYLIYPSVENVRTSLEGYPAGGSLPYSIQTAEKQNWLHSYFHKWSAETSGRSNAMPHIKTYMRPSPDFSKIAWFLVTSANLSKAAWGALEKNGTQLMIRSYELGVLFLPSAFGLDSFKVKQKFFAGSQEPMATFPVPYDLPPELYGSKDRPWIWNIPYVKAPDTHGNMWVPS

Structure (SMILES)	target or system	test	system	conditions	scale	quantity	value
CN1CCN(c2ccc3[nH]c(-c4ccc5[nH]c(-c6ccc(OCCCCNC(=O)c7cccc8c7C(=O)OC87c8ccc(N(C)C)cc8C(C)(C)c8cc(N(C)C)ccc87)cc6)nc5c4)nc3c2)CC1	Albumin	binding, fluorescence titration	PBS	1 h	–	Kd	19 ± 15 µM
CC(C)(O)c1ncc([S@](N)(=O)=NC(=O)Nc2c3c(cc4c2CCC4)CCC3)s1	–	–	human whole blood	wet ice and room temperature	–	stability time	≥ 2 h
COC(=O)c1cc(O)c(=O)c(OC)cc1C	HepDES19	cell growth or viability, MTS	–	72 h	–	CC50	> 100 µM
N#C[C@@H]1CCCN1C(=O)CNC(=O)c1ccnc2ccc(OCCCN3CCN(C(=O)CCc4ccc(O)c(CN5CCN6CC(=O)[O][Al-]([18F])([O]C(=O)C5)[O]c5ccc(CCC(=O)N7CCN(CCCOc8ccc9nccc(C(=O)NCC(=O)N%10CCC[C@H]%10C#N)c9c8)CC7)cc5C6)c4)CC3)cc12 (some centres unmarked)	U-87 MG tumour model	–	host not given, muscle	2 h, tumour-bearing	–	tracer uptake	2.3 %ID/g
COC1C=COC2(C)Oc3c(C)c(O)c4c(c3C2=O)C2=NC3(CCN(CC(C)C)CC3)NC2=C(NC(=O)C(C)=CC=CC(C)C(O)C(C)C(O)C(C)C(OC(=O)c2cccnc2)C1C)C4=O (centres unmarked)	THP-1 derived macrophages	–	–	30 min	baseline: intracellular over extracellular	intracellular/extracellular ratio	44.2
COc1cccc(OC)c1-c1cc(C(=O)NC2(C(=O)O)C3CC4CC(C3)CC2C4)nn1-c1ccc(C(=O)NCCNC(=O)[C@H](CCCCNC(=O)[C@H](CC(C)C)NC(=O)C2OC2C(=O)O)NC(=O)CN2CCN(CC(=O)[O-])CCN(CC(=O)[O-])CCN(CC(=O)[O-])CC2)cc1C(C)C.[177Lu+3] (mixture of isomers)	HT-29 tumour model	–	host not given, blood	7 days, tumour-bearing	–	tracer uptake	0.16 %ID/g
Cc1cc(O)c(=O)c(O)cc1C(=O)c1ccco1	HepDES19	cell growth or viability, MTS	–	72 h	–	CC50	40 µM
COc1cccc(OC)c1-c1cc(C(=O)NC2(C(=O)O)C3CC4CC(C3)CC2C4)nn1-c1ccc(C(=O)N(C)CCCN(C)C(=O)[C@H](CCCCNC(=O)[C@H](CC(C)C)NC(=O)C2OC2C(=O)O)NC(=O)CN2CCN(CC(=O)[O-])CCN(CC(=O)[O-])CCN(CC(=O)[O-])CC2)cc1C(C)C.[177Lu+3] (mixture of isomers)	HT-29 tumour model	–	host not given, blood	72 h, tumour-bearing	–	tracer uptake	0.037 %ID/g
N=C(N)NCCC[C@@H]1NC(=O)[C@H](CCCNC(=N)N)NC(=O)[C@@H](CCCNC(=N)N)NC(=O)[C@@H](CCCNC(=N)N)NC(=O)[C@@H](C(c2ccccc2)c2ccccc2)NC(=O)[C@H](Cc2c[nH]c3ccccc23)NC(=O)[C@@H](C(c2ccccc2)c2ccccc2)NC1=O	human red blood cells	haemolysis	–	2 h, 37 °C	–	HC50	310 µg/mL
CC(C)OCCOCc1ccc(OCC(O)CN(N=O)C(C)C)cc1 (centres unmarked)	Salmonella typhimurium	Ames test	TA98	5000 µg/plate, 30 % hamster S9	baseline: solvent control	revertant fold increase	1 fold
CN1CCN(c2ccc3[nH]c(-c4ccc5[nH]c(-c6ccc(OCCCCNC(=O)c7ccc8c(c7)C7(OC8=O)c8ccc(N(C)C)cc8[Si](C)(C)c8cc(N(C)C)ccc87)cc6)nc5c4)nc3c2)CC1	Albumin	–	PBS	1 µM, 1 h, with: 25 mg/mL albumin	–	fluorescence quantum yield	0.006 ± 0.003
N#C[C@@H]1CC(F)(F)CN1C(=O)CNC(=O)c1ccnc2c(NC(=O)[C@H](CCCCNC(=O)CCOCCOCCOCCOCCOCCOCCNC(=O)CN3CCN(CC(=O)[O-])CCN(CC(=O)[O-])CCN(CC(=O)[O-])CC3)NC(=O)CCCc3ccc(I)cc3)cccc12.[177Lu+3]	U-87 MG tumour model	–	host not given, bone	72 h, tumour-bearing	–	tracer uptake	0.68 %ID/g
N#C[C@@H]1CCCN1C(=O)CNC(=O)c1ccnc2ccc(OCCCN3CCN(C(=O)CCc4ccc5c(c4)CN4CCN6CC(=O)[O][68Ga-]([O]C(=O)C4)([O]5)[O]c4ccc(CCC(=O)N5CCN(CCCOc7ccc8nccc(C(=O)NCC(=O)N9CCC[C@H]9C#N)c8c7)CC5)cc4C6)CC3)cc12	U-87 MG tumour model	–	host not given, intestine	1 h, tumour-bearing	–	tracer uptake	3.1 %ID/g
O=C(O)c1ccc(Nc2c(-c3ccccc3)nc3ccc(CON=Cc4cc(Br)c(Br)o4)cn23)cc1	TDP1	enzyme activity, inhibitor	–	100 µM, unpurified compound	–	inhibition	37%
CN(C)c1ccc2c(c1)[Si](C)(C)c1cc(N(C)C)ccc1C21OC(=O)c2cc(C(=O)O)ccc21	Albumin	binding, fluorescence titration	PBS	–	–	Kd	17 ± 4 µM
Cc1cc(O)c(=O)c(O)cc1C(=O)c1cccc2ccccc12	HepDES19	cell growth or viability, MTS	–	72 h	–	CC50	> 100 µM

Structure (SMILES)	target or system	test	system	conditions	scale	quantity	value
COc1cccc(OC)c1-c1cc(C(=O)NC2(C(=O)O)C3CC4CC(C3)CC2C4)nn1-c1ccc(C(=O)N(C)CCCN(C)CCCN(C)C(=O)[C@H](CCCCNC(=O)[C@H](CC(C)C)NC(=O)C2OC2C(=O)O)NC(=O)CN2CCN(CC(=O)[O-])CCN(CC(=O)[O-])CCN(CC(=O)[O-])CC2)cc1C(C)C.[177Lu+3] (mixture of isomers)	HT-29 tumour model	–	host not given, blood	24 h, tumour-bearing	–	tracer uptake	0.4 %ID/g
Cc1cc(O)c(=O)c(O)cc1C(=O)CC1CCCCC1	HepDES19	cell growth or viability, MTS	–	72 h	–	CC50	76.6 µM
Nc1nc2cc(C(=O)c3ccc(F)cc3)ccc2[nH]1	Salmonella typhimurium	Ames preincubation test	TA1537	39.0 µg/plate, without S9	–	revertants	10.3 revertants/plate
CN1CCN(c2ccc3[nH]c(-c4ccc5[nH]c(-c6ccc(OCCCCNC(=O)c7ccc8c(c7)C7(OC8=O)c8ccc(N(C)C)cc8C(C)(C)c8cc(N(C)C)ccc87)cc6)nc5c4)nc3c2)CC1	Albumin	binding, fluorescence titration	PBS	1 h	–	Kd	32 ± 16 µM
COc1cccc2c(C=NOCc3ccc(-c4nc5cc(-c6ccccc6)ccn5c4Nc4ccc(C(=O)O)cc4)cc3)ccc(N(C)C)c12 (mixture of isomers)	TDP1	enzyme activity, inhibitor	–	100 µM, unpurified compound	–	inhibition	59.7%
C=C(NC(=O)c1csc(-c2nc3c(cc2O)-c2nc(cs2)C(=O)NC(C(C)O)C(=O)NC(=C(C)OC)c2nc(cs2)C(=O)NC2c4nc(cs4)C(=O)NC(COC(=O)c4c5c6c(cccc6n4O)COC(=O)C(OC4CC(C)(O)C(N(C)C)C(C)O4)C2OC5)c2nc-3cs2)n1)C(N)=O (centres unmarked)	–	–	ICR mice, Streptococcus pneumoniae ATCC 49169 infected, immunocompromised, blood	intravenous, 32 mg/kg/day three times daily	–	AUC(0-inf)	2930 ng·h/mL
Cc1cc(O)c(=O)c(O)cc1C(=O)c1ccc([N+](=O)[O-])cc1	HepDES19	cell growth or viability, MTS	–	72 h	–	CC50	45.4 µM
N#C[C@@H]1CC(F)(F)CN1C(=O)CNC(=O)c1ccnc2c(NC(=O)CCOCCOCCOCCOCCOCCOCCNC(=O)[C@H](CCCCNC(=O)CN3CCN(CC(=O)[O-])CCN(CC(=O)[O-])CCN(CC(=O)[O-])CC3)NC(=O)CCCc3ccc(I)cc3)cccc12.[177Lu+3]	U-87 MG tumour model	–	host not given, stomach	4 h, tumour-bearing	–	tracer uptake	0.58 %ID/g
COC(=O)Nc1nc2cc(C(O)c3ccc(F)cc3)ccc2[nH]1 (centres unmarked)	Salmonella typhimurium	Ames preincubation test	TA1535	875.0 µg per plate, 3 days, without S9, precipitation	–	revertants	16 revertants per plate
CC(C)Cc1ccc(C(C)C(=O)N[C@@H](CCCCNC(=O)CCOCCOCCOCCOCCOCCOCCNC(=O)CN2CCN(CC(=O)[O-])CCN(CC(=O)[O-])CCN(CC(=O)[O-])CC2)C(=O)Nc2cccc3c(C(=O)NCC(=O)N4CC(F)(F)C[C@H]4C#N)ccnc23)cc1.[177Lu+3] (some centres unmarked)	U-87 MG tumour model	–	host not given, stomach	24 h, tumour-bearing	–	tracer uptake	0.44 %ID/g
Cc1ccc(S(=O)(=O)Oc2cccccc2=O)cc1	HepDES19	cell growth or viability, MTS	–	72 h	–	CC50	30.8 µM
CNC(=O)C1CCCN(C(=O)C2CC3CCC2N3C(=O)[C@@H]2C[C@@H](O)CN2C(=O)NCc2cccc(Cl)c2F)C1 (mixture of isomers)	Cytochrome P450 2C8 (CYP2C8, Homo sapiens, UniProt P10632)	preincubation with NADPH	human	5.56 µM	baseline: negative control	remaining activity	93.6% and 106% and 71.1%
Cc1cc(O)c(=O)c(O)cc1C(=O)c1cccc([N+](=O)[O-])c1	HepDES19	cell growth or viability, MTS	–	72 h	–	CC50	20 µM
CCN(CC)CC#CCNc1ccnc2cc(Cl)ccc12	Salmonella typhimurium	mini-Ames test	TA97a	1000.0 µg/well, with rat liver S9	–	revertants	13 revertants/well and 8 revertants/well
O=C(/C=C/c1cccc(Br)c1)c1ccccc(=O)c1O	HepDES19	cell growth or viability, MTS	–	72 h	–	CC50	17.1 µM
O=C1C2CC3CC1CC(C(=O)N1CCN(c4ccc([N+](=O)[O-])c5ncccc45)CC1)(C3)C2	Salmonella typhimurium	Ames test	TA98	0.31 µg/well, with S9	–	mean revertant colonies	5 colonies/well

A few entries again:
Structure (SMILES)	target or system	test	system	conditions	scale	quantity	value
O=C(O)c1ccc(Nc2c(-c3ccccc3)nc3ccc(CON=Cc4cc(Br)c(Br)o4)cn23)cc1	TDP1	enzyme activity, inhibitor	–	100 µM, unpurified compound	–	inhibition	37%
CN(C)c1ccc2c(c1)[Si](C)(C)c1cc(N(C)C)ccc1C21OC(=O)c2cc(C(=O)O)ccc21	Albumin	binding, fluorescence titration	PBS	–	–	Kd	17 ± 4 µM
Cc1cc(O)c(=O)c(O)cc1C(=O)c1cccc2ccccc12	HepDES19	cell growth or viability, MTS	–	72 h	–	CC50	> 100 µM
COc1cccc(OC)c1-c1cc(C(=O)NC2(C(=O)O)C3CC4CC(C3)CC2C4)nn1-c1ccc(C(=O)N(C)CCCN(C)CCCN(C)C(=O)[C@H](CCCCNC(=O)[C@H](CC(C)C)NC(=O)C2OC2C(=O)O)NC(=O)CN2CCN(CC(=O)[O-])CCN(CC(=O)[O-])CCN(CC(=O)[O-])CC2)cc1C(C)C.[177Lu+3] (mixture of isomers)	HT-29 tumour model	–	host not given, blood	24 h, tumour-bearing	–	tracer uptake	0.4 %ID/g
